{"data": "Assay results gathered from unrelated publications", "note": "Each numbered part is a random draw from the data of one study; scales do not carry over between parts. Positions count from the first letter of the parent shown.", "chain of UniProt O14965 (whole entry, looked up)": "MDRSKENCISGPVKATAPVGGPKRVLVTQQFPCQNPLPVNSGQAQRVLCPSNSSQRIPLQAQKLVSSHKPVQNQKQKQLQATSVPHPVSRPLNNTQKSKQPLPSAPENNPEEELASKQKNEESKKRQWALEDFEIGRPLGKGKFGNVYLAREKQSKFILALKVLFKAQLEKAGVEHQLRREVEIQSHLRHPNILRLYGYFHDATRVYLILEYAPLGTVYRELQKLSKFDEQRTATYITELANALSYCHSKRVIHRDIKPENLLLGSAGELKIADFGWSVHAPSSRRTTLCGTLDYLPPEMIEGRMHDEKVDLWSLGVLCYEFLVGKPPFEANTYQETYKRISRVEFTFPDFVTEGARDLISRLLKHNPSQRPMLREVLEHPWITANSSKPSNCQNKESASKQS"}
{"data": "Sample 1", "target": "Interferon regulatory factor 1, DNA-binding domain (IRF1, Homo sapiens, UniProt P10914, residues 1-114)", "method": "protein-binding microarray", "molecule type": "hairpin DNA", "sample": "in vitro", "tested at": "not given", "notes": "whole hairpin DNA, median over replicate spots", "reference": "not given", "reading": "higher = stronger binding", "Construct (chain)": "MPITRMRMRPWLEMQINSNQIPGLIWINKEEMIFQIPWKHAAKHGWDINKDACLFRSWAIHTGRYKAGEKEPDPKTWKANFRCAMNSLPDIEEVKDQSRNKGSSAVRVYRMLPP"}
{"Strand": "GAGGCCCTAAAGTGAAACGCCTCCTGGCGTTTCACTTTAGGGCCTCACAC", "median fluorescence": "1080 a.u."}
{"Strand": "GAGGCCCGATAGCGAAACGCCTCCTGGCGTTTCGCTATCGGGCCTCACAC", "median fluorescence": "641 a.u."}
{"Strand": "GAGGCCCGAAAGCGAAACGCCTCCTGGCGTTTCGCTTTCGGGCCTCACAC (5mC at 7 33)", "median fluorescence": "1080 a.u."}
{"Strand": "GAGGCCCCGAAGCGAAACGCCTCCTGGCGTTTCGCTTCGGGGCCTCACAC", "median fluorescence": "581 a.u."}
{"Strand": "GAGGCCCGAAAGTGAACCGCCTCCTGGCGGTTCACTTTCGGGCCTCACAC (5mC at 17)", "median fluorescence": "534 a.u."}
{"Strand": "GAGGCCCGACAGCGAAACGCCTCCTGGCGTTTCGCTGTCGGGCCTCACAC", "median fluorescence": "536 a.u."}
{"Strand": "GAGGCCCGAAAGCTAAACGCCTCCTGGCGTTTAGCTTTCGGGCCTCACAC", "median fluorescence": "486 a.u."}
{"Strand": "GAGGCCCGAAAGTTAAACGCCTCCTGGCGTTTAACTTTCGGGCCTCACAC", "median fluorescence": "508 a.u."}
{"data": "Sample 2", "target": "CCNA1, cyclin fold, Cln2 fusion (human)", "method": "yeast growth competition, sequencing", "sample": "yeast", "notes": "weak parent motif", "reference": "not given", "reading": "higher = stronger binding", "starting sequence": "SLBP docking peptide (human); ARYKRKLLINDFG; partner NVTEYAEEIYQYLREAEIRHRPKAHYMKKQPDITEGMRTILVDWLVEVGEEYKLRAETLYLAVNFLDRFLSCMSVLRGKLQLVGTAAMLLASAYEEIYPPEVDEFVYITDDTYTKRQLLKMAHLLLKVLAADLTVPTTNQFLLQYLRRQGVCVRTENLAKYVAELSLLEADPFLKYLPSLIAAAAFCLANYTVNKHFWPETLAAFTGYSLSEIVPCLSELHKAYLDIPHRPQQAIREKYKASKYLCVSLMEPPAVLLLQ"}
{"Variant": "ARYKRKLQINDFG [L8Q]", "normalised enrichment score": 0.314}
{"Variant": "PRYKRKLLINDFG [A1P]", "normalised enrichment score": 0.431}
{"Variant": "ARYTRKLLINDFG [K4T]", "normalised enrichment score": -0.00512}
{"Variant": "ARYKRKMLINDFG [L7M]", "normalised enrichment score": 0.394}
{"Variant": "ARYKRKLLINDFC [G13C]", "normalised enrichment score": 0.473}
{"Variant": "ARYKRQLLINDFG [K6Q]", "normalised enrichment score": 0.659}
{"Variant": "ARYKAKALINDFG [R5A L7A]", "normalised enrichment score": 0.0937}
{"Variant": "ARYFRKLLINDFG [K4F]", "normalised enrichment score": 0.2}
{"data": "Mixed results"}
{"Substance": "PhoQ, residues 284 288 289 292 302 303 GASLAW", "target": "PhoP, residues 12 14 15 18 19 LHHVQ (Escherichia coli, UniProt P23836)", "test": "Sort-seq, refers to: YFP reporter", "test system": "E. coli", "setting": "PhoQ-PhoP variant library, added: 10 µM Mg2+", "how to read": "reference: high Mg2+ state, higher = stronger signaling", "quantity": "fold induction", "result": 9.43}
{"Substance": "N#C/C(=C\\c1ccc(O)c(O)c1)C(=O)NCc1ccccc1", "target": "Aurora kinase A (AURKA, Homo sapiens, UniProt O14965)", "test": "enzyme activity, inhibitor", "setting": "0.5 µM", "how to read": "reference: control", "quantity": "remaining activity", "result": "92.2%"}
{"note": "A few entries again (sample 2):"}
{"Variant": "ARYKRQLLINDFG [K6Q]", "normalised enrichment score": 0.659}
{"Variant": "ARYKAKALINDFG [R5A L7A]", "normalised enrichment score": 0.0937}
